# Measured values collected from several papers.
# Protocols differ between the studies behind these lines. Numbers after ± are the reported error.
# Cell line: Vero
Compound,read-out,method,sample,tested at,time,endpoint,value
Oc1cc(Cn2ccnn2)ccc1Oc1ccc(Cl)cc1Cl,cytotoxicity,,,,,IC50,1 µg/mL
O[C@]12C=C(c3nccc4c3[nH]c3ccccc34)[C@@H]3CCN(CCCC/C=C\CC1)C[C@@]31C[C@@H]3/C=C\CCCCN3[C@H]12,cytotoxicity,neutral red,,,48 h,IC50,0.975 ± 0.075 µg/mL
C[C@@H]1O[C@@H](n2ccc(N)nc2=O)[C@H](I)[C@H](OCc2ccccc2)[C@H]1OCc1ccccc1,,MTT,DMEM with 10% FBS,,72 h,CC50,> 50 µM
COc1cc(O)c2c(c1)/C=C/C[C@H](O)[C@H](O)C(=O)/C=C\C[C@H](C)OC2=O,cell growth or viability,resazurin,,,,CC50,38.8 µM
Cc1noc(C)c1S(=O)(=O)N1CCCC2(C1)Nc1cccnc1N=C2NC1CCCC1 (stereo not shown),,,,,72 (unit not given),CC50,85.2 µM
CSCC[C@H](NC(=O)[C@@H](NC(C)=O)C(C)C)C(=O)N1CCC[C@H]1C(=O)N[C@@H](Cc1c[nH]c2ccccc12)C(=O)N[C@@H](CC(=O)O)C(=O)N[C@@H](CCC(=O)O)C(=O)N[C@@H](Cc1c[nH]c2ccccc12)C(=O)N[C@@H](CC(C)C)C(=O)N[C@H](C(=O)N[C@@H](CCCCN)C(=O)N[C@@H](CCCNC(=N)N)C(=O)N[C@@H](CCCCN)C(=O)N1CCC[C@H]1C(=O)N[C@@H](CCC(=O)O)C(=O)N[C@@H](CC(C)C)C(=O)N1CCC[C@H]1C(N)=O)[C@@H](C)O,,,,100 µM,overnight,viability,28%
COC(=O)c1cc2c(=O)n3ccccc3nc2n1Cc1ccccc1,,MTT,,0.4 µM,24 (unit not given),viability,86.5%
Cc1cn([C@@H]2O[C@@H](C)[C@H](OCc3ccccc3)[C@@H](OCc3ccccc3)[C@H]2I)c(=O)[nH]c1=O,,MTT,DMEM with 10% FBS,,72 h,CC50,> 50 µM
CC(C)C[C@H](NC(=O)[C@H](CC(C)C)NC(=O)[C@H](CCCCN)NC(=O)CNC(=O)[C@H](CC(C)C)NC(=O)CNC(=O)[C@H](CO)NC(=O)[C@H](CC(C)C)NC(=O)[C@H](CC(C)C)NC(=O)[C@H](CO)NC(=O)[C@H](CCCCN)NC(=O)[C@H](CC(C)C)NC(=O)[C@H](CCCCN)NC(=O)[C@H](CCCCN)NC(=O)[C@H](C)NC(=O)[C@H](C)NC(=O)[C@H](C)NC(=O)CNC(=O)[C@H](CO)NC(=O)[C@H](Cc1c[nH]c2ccccc12)NC(=O)[C@@H](N)CCCCN)C(=O)O,,MTS,,,24 h,TC50,> 100 µM
CCCCCCNCc1ccc(Oc2ccc(Cl)cc2Cl)c(O)c1,cytotoxicity,,,,,IC50,4 µg/mL

# Repeated from above:
Compound,read-out,method,sample,tested at,time,endpoint,value
CSCC[C@H](NC(=O)[C@@H](NC(C)=O)C(C)C)C(=O)N1CCC[C@H]1C(=O)N[C@@H](Cc1c[nH]c2ccccc12)C(=O)N[C@@H](CC(=O)O)C(=O)N[C@@H](CCC(=O)O)C(=O)N[C@@H](Cc1c[nH]c2ccccc12)C(=O)N[C@@H](CC(C)C)C(=O)N[C@H](C(=O)N[C@@H](CCCCN)C(=O)N[C@@H](CCCNC(=N)N)C(=O)N[C@@H](CCCCN)C(=O)N1CCC[C@H]1C(=O)N[C@@H](CCC(=O)O)C(=O)N[C@@H](CC(C)C)C(=O)N1CCC[C@H]1C(N)=O)[C@@H](C)O,,,,100 µM,overnight,viability,28%
